Measured values collected from several papers.
Technique: steady-state kinetics
B1: enzyme (Corynebacterium glutamicum, UniProt Q8NT37); chain MSSGRTVPTRSHGLGKEGVSTTGASQVEFGDPELTARINDAMVQVEELLHTELSSGEDFLVDIVMHLTRAGGKRFRPMFALLASEFGEKPLSENVIKAAVVVEITHLATLYHDDVMDEASMRRGVPSANARWDNSVAILAGDILLAHASGLMSQLGTDTVAHFAETFGELVTGQMRETVGPRDTDPIEHYTNVIREKTGVLIASAGYLGAMHAGAAPEHIDALKNFGAAVGMIFQIVDDIIDIFSETHESGKTPGTDLREGVFTLPVLYALREDTPVGAELRDILTGPLEDDETVNHVLELLSQSGGRQAALDEVYRYMDIANAELDRLPDSTVKEALRNLATFTVKRVG
B2: bga E532Q (Niallia circulans, UniProt E5RWQ2); chain GNSVSYDGERRVNFNENWRFQRETNGSIAGAQNPGFDDSSWRKLNLPHDWSIELDFNKNSLATHEGGYLDGGIGWYRKTFTIPESMKGKRISLDFDGVYMNSTTYLNGEVLGTYPFGYNAFSYDISDKLYKDGRANVLVVKVNNTQPSSRWYSGSGIYRNVYLTVTDPIHVARYGTFVTTPNLEKSIKEDRADVNIKTKISNDAAEAKQVKIKSTIYDGAGNTVQTVETEEKTAAAGTVTPFEQNTVIKQPKLWSIDKPYRYNLVTEVIVGGQTVDTYETKFGVRYFKFDENEGFSLNGEYMKLHGVSMHHDLGALGAATNARGVERQMQIMKDMGVNAIRVTHNPASPELLEAANKLGLFIIEEAFDSWAQSKKPYDYGRFFNAWAEHDIKEMVDRGKNEPAIIMWSIGNEIYDTTNAAGVETARNLVGWVKEIDTTRPTTIGEDKTRGDKVNVTPINSYIKEIFNIVDVVGLNYSENNYDGYHKQNPSWKLYGSQTSSATRSRGVYTHPYQYNQSTKYADLQQSSYDNDYVGWGRTAEDAWKYDRDLKHIAGQFIWTGFDYIGEPTPYYNSYPAKSSYFGAVDTAGFPKDIFYYYQSQWKKEPMVHLLPHWNWKEGEKVRVLAYTNASKVELVLNGESLGEKNYDNKQTSWGAPYKETKDGKTYLEWAVPFKPGKLEAVAKDENGKVIARDQVVTAGEPASVRLTADRKVVKADGTDLSFITADIVDSKGIVVPDADHLITFNVTGQGELAGVDNGNASSVERYKDNKRKAFSGKALAIVQSSKLSGKITVHASVAGLSSDSTSVFTVTP
B3: FMO3 V277A (Homo sapiens, UniProt P31513); chain GKKVAIIGAGVSGLASIRSCLEEGLEPTCFEKSNDIGGLWKFSDHAEEGRASIYKSVFSNSSKEMMCFPDFPFPDDFPNFMHNSKIQEYIIAFAKEKNLLKYIQFKTFVSSVNKHPDFATTGQWDVTTERDGKKESAVFDAVMVCSGHHVYPNLPKESFPGLNHFKGKCFHSRDYKEPGVFNGKRVLVVGLGNSGCDIATELSRTAEQVMISSRSGSWVMSRVWDNGYPWDMLLVTRFGTFLKNNLPTAISDWLYVKQMNARFKHENYGLMPLNGALRKEPVFNDELPASILCGIVSVKPNVKEFTETSAIFEDGTIFEGIDCVIFATGYSFAYPFLDESIIKSRNNEIILFKGVFPPLLEKSTIAVIGFVQSLGAAIPTVDLQSRWAAQVIKGTCTLPSMEDMMNDINEKMEKKRKWFGKSETIQTDYIVYMDELSSFIGAKPNIPWLFLTDPKLAMEVYFGPCSPYQFRLVGPGQWPGARNAILTQWDRSLKPMQTRVVGRLQKPCFFFHWLKLFAIPILLIAVFLVLT
B4: Saccharopine reductase Y99F (Saccharomyces cerevisiae, UniProt P38999); chain MGKNVLLLGSGFVAQPVIDTLAANDDINVTVACRTLANAQALAKPSGSKAISLDVTDDSALDKVLADNDVVISLIPYTFHPNVVKSAIRTKTDVVTSSFISPALRELEPEIVKAGITVMNEIGLDPGIDHLYAVKTIDEVHRAGGKLKSFLSYCGGLPAPEDSDNPLGYKFSWSSRGVLLALRNSAKYWKDGKIETVSSEDLMATAKPYFIYPGYAFVCYPNRDSTLFKDLYHIPEAETVIRGTLRYQGFPEFVKALVDMGMLKDDANEIFSKPIAWNEALKQYLGAKSTSKEDLIASIDSKATWKDDEDRERILSGFAWLGLFSDAKITPRGNALDTLCARLEELMQYEDNERDMVVLQHKFGIEWADGTTETRTSTLVDYGKVGGYSSMAATVGYPVAIATKFVLDGTIKGPGLLAPYSPEINDPIMKELKDKYGIYLKEKTVA
B5: enzyme (Polygonum cuspidatum, UniProt B2MWQ7); chain MANVLQEIRNSQKATGPATVLAIGTAVPPTCYPQADYPDFYFRVCKSEHMTQLKKKMQYICDRSGIRQRYMFHTEENLGKNPSMCTFDGASLNARQEMLIMEVPKLGVEAAEKAIKEWGHDKSKITHLIFCTTTSNDMPGADYQFATMFGLNPTVSRTMVYQQGCFAGGTVLRLVKDIAENNKGSRVLVVCSEIVAFAFRGPHEDHIDSLIGQLLFGDGAAALVVGADVDESVEKPIFQIMSASQATIPNSLHTMALHLTEAGLTFHLSKEVPKAVSDNMEELMLEAFKPLGITDWNSIFWQVHPGGKAILDKIEEKLELSKDKMRDSRYILSEYGNLTSACVLFVMDEMRKRSFREGKKTTGDGYEWGVAIGLGPGLTVETIVLRSVPIL
B6: pdh1 (Macropsalliota meleagris, UniProt Q3L245); chain AITYQHPDDLPSGVDYDFIVAGGGTAGLVVASRLSENSNWKVLVIEAGPSNKDAFVTRVPGLASTLGAGSPIDWNYTTIPQDGLDGRSLDYPRAKILGGCSTHNGMVYTRGSKDDWNSWAGIIGDQGLGWDSILPAIKKAEKFTQDFTDQSVKGHIDPSVHGFDGKLSVSAAYSNISFNDLLFETTKELNAEFPFKLDMNDGKPIGLGWTQYTIDNHAERSSSATSYLESTGDNVHVLVNTLVTRVLSASGNGTDFRKVEFAVDANSPKKQLEAKKEVIVAGGVIASPQILMNSGIGERKVLQAVGIDTLIDNPSVGKNLSDQGATSVMFDTTLPSTDFDVDAALTEWTNSHTGPLARGARLNHLTFVRLPDDKLNGQDPSSGKNSPHIEFQFAQITPQVPTLGVPKQAPLPAANSYRLLLQLAVVNLYSISRGSISLSDNNPFTYPLIDLNMFKEDIDIAILREGIRSAGRMFSSKAFKNSVNKFVYPPADATSDEDLDAFLRSSTFSYVHGVGTLSMSPKGASWGVVNPDFKVKGTSGLRVVDASVIPHAPAAHTQLPVYAFAEYASALIAKSYN
B7: panA (Haloferax volcanii, UniProt D4GUJ7); chain MMTDTVDDVDLPYDKDSASQQEKITALQERLEVLETQNEEMRDKLLDTNAENNKYQQKLERLTHENKKLKQSPLFVATVQEITDEGVIIKQHGNNQEALTEVTDEMREELEPDARVAVNNSLSIVKRLDKETDVRARVMQVEHSPDVTYEDIGGLEEQMQEVRETVEMPLDRPEMFAEVGIDPPSGVLLYGPPGTGKTMLAKAVANQTNASFIKMAGSELVHKFIGEGAKLVRDLFEVARENEPAVIFIDEIDAIASKRTDSKTSGDAEVQRTMMQLLAEMDGFDERGNIRIIAATNRFDMLDPAILRPGRFDRLIEVPKPNEDGREIIFQIHTRKMNVSDDVDFVELAEMADNASGADIKAVCTEAGMFAIRDDRTEIFMQDFVDAWEKIQQEASDETEVSRAFA
B8: lpxA (Escherichia coli, UniProt P0A722); chain MIDKSAFVHPTAIVEEGASIGANAHIGPFCIVGPHVEIGEGTVLKSHVVVNGHTKIGRDNEIYQFASIGEVNQDLKYAGEPTRVEIGDRNRIRESVTIHRGTVQGGGLTKVGSDNLLMINAHIAHDCTVGNRCILANNATLAGHVSVDDFAIIGGMTAVHQFCIIGAHVMVGGCSGVAQDVPPYVIAQGNHATPFGVNIEGLKRRGFSREAITAIRNAYKLIYRSGKTLDEVKPEIAELAETYPEVKAFTDFFARSTRGLIR
B9: sacB Y439F (Priestia megaterium, UniProt D5DC07); chain KGNDSKDFNNSYGISHITRDNMVKIPQQQNSDQFKVPAFDESTIKNIASAKGKNASGNTIDLDVWDSWPLQNADGTVATYHGYQIVFALAGDPKDSNDTSVYLFYKKAGDKSIDSWKNAGRVFKDSDKFVPNDPHLKNQTQEWSGSGTLTKDGKVRLFYTDYSGKQYGKQTLTTAQVNMSQPNDNTLKVDGVEDYKSIFDGDGKIYQTVQQFIDEGGYDTGDNHTLRDPHYIEDNGHKYLVFEANTGTEDGYQGEDSLYNRAYYGGNNPFFQSEKKKLLEGSNKEKASLANGALGIIELNDDYTLKKVMKPLITSNTVTDEIERANIFKKDGKWYLFTDSRGSKMTIDGIGQDDVYMLGYVSNTLTGKYKPLNDTGLVLHMDLDPNDKTFTYSHFAVPQTKGDNVVITSFMTNRGFYEDNHSTFAPSFLVNIDGSKTSVVKDRVLEQGQLTVDED
UniProt A8NCK5, sequence (whole entry, looked up): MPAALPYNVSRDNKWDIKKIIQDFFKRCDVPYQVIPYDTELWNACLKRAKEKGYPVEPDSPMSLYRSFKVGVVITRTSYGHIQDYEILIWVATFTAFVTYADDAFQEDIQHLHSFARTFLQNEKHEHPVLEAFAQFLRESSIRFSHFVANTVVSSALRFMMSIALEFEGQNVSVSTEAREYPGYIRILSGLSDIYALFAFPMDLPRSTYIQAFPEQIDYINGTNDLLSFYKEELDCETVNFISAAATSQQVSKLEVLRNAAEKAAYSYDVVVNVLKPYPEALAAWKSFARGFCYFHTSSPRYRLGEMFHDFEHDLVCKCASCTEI
UniProt B7MMH5, sequence (whole entry, looked up): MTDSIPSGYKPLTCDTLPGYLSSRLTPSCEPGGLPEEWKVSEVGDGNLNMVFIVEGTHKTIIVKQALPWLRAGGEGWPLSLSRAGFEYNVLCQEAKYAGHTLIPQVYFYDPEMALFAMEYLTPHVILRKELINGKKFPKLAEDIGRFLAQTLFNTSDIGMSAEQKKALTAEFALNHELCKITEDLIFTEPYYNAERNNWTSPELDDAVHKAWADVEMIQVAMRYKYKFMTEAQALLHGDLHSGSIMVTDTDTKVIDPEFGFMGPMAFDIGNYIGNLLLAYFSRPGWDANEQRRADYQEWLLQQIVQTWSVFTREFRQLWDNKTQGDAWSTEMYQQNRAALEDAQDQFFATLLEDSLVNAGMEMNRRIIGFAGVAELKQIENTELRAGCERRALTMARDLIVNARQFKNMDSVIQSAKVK
UniProt E1V931, sequence (whole entry, looked up): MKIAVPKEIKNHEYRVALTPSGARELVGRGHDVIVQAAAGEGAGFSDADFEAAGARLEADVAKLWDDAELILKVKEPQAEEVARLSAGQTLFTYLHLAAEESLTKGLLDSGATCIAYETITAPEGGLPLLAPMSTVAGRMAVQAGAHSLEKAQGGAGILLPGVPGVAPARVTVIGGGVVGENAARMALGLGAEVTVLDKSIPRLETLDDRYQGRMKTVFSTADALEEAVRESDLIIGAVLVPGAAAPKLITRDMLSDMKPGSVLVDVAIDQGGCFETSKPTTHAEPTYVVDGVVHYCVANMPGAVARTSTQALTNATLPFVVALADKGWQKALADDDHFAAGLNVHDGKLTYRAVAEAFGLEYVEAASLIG

For `B1 (enzyme)`, the Km was 13 µM (C=C(C)CCO[P@@](=O)(O)OP(=O)(O)O; pH 7.6, 37 °C).
`Cop6 (Coprinopsis cinerea, UniProt A8NCK5)` gave a Km of 1.5 µM (CC(C)=CCC/C(C)=C/COP(=O)(O)OP(=O)(O)O; pH 8, 30 °C, together with: MgCl2 10 mM).
For `mtnK (Escherichia coli, UniProt B7MMH5)`, the Km was 83 µM (Nc1ncnc2c1ncn2[C@@H]1O[C@H](COP(=O)(O)OP(=O)(O)OP(=O)(O)O)[C@@H](O)[C@H]1O; pH 7.8, 30 °C, together with: 5-deoxyribose).
With `B2 (bga E532Q)` the Km was 1900 µM (O=[N+]([O-])c1ccccc1O[C@@H]1O[C@H](CO)[C@H](O)[C@H](O)[C@H]1O; pH 6, 40 °C, low-substrate phase, biphasic).
With `B3 (FMO3 V277A)` the Km was 700 µM (CN1CCC[C@H]1c1cccnc1; HEK293 microsomes; 37 °C, not purified, together with: NADPH regenerating system).
With `B4 (Saccharopine reductase Y99F)` the Km was 740 µM (NC(=O)c1ccc[n+]([C@@H]2O[C@H](COP(=O)(O)OP(=O)(O)OC[C@H]3O[C@@H](n4cnc5c(N)ncnc54)[C@H](OP(=O)(O)O)[C@@H]3O)[C@@H](O)[C@H]2O)c1; pH 9, 25 °C, together with: saccharopine).
The Km of `B5 (enzyme)` is reported as 79.9 µM (CC(C)(COP(=O)(O)OP(=O)(O)OC[C@H]1O[C@@H](n2cnc3c(N)ncnc32)[C@H](O)[C@@H]1OP(=O)(O)O)[C@@H](O)C(=O)NCCC(=O)NCCSC(=O)CC(=O)O; pH 7, 45 °C).
`B6 (pdh1)` gave a Km of 120 µM (Nc1ccc2nc3ccc(N)cc3[s+]c2c1; pH 7.5, 22 °C, apparent).
For `B7 (panA)`, the Km was 438 µM (Nc1ncnc2c1ncn2[C@@H]1O[C@H](COP(=O)(O)OP(=O)(O)OP(=O)(O)O)[C@@H](O)[C@H]1O; pH 8, 42 °C, NaCl 2 M, together with: MgCl2 9.6 mM).
The Km of `B8 (lpxA)` is reported as 600 µM (CC(=O)N[C@H]1[C@@H](OP(=O)(O)OP(=O)(O)OC[C@H]2O[C@@H](n3ccc(=O)[nH]c3=O)[C@H](O)[C@@H]2O)O[C@H](CO)[C@@H](O)[C@@H]1O; pH 8, 25 °C, together with: R-3-hydroxymyristoyl-ACP 40 µM).
`enzyme (Halomonas elongata, UniProt E1V931)` gave a Km of 180 µM (NC(=O)C1=CN([C@@H]2O[C@H](COP(=O)(O)OP(=O)(O)OC[C@H]3O[C@@H](n4cnc5c(N)ncnc54)[C@H](O)[C@@H]3O)[C@@H](O)[C@H]2O)C=CC1; pH 8, 25 °C, cofactor varied).
`B9 (sacB Y439F)` gave a Km of 92900 µM (OC[C@H]1O[C@@](CO)(O[C@H]2O[C@H](CO)[C@@H](O)[C@H](O)[C@H]2O)[C@@H](O)[C@@H]1O; pH 6.6).

Repeated from above:
With `B2 (bga E532Q)` the Km was 1900 µM (O=[N+]([O-])c1ccccc1O[C@@H]1O[C@H](CO)[C@H](O)[C@H](O)[C@H]1O; pH 6, 40 °C, low-substrate phase, biphasic).
